Experimental data from different studies.
Parts stem from different laboratories: compare values within a part only. Changes are numbered by the printed parent chain.
Sequence of UniProt Q9UIK4 (whole entry, looked up): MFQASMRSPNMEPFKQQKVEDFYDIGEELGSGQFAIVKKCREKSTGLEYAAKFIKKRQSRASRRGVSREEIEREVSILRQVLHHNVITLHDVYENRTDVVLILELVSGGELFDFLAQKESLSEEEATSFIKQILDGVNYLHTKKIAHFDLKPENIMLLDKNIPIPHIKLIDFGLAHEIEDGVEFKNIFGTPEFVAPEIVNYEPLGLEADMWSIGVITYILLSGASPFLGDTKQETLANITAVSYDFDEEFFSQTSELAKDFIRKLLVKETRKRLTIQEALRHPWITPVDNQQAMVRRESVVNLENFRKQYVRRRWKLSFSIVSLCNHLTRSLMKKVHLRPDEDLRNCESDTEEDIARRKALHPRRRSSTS

Set 1 — effect on: binding; method: phage display NGS; form: peptide; concentration: concentration not given; reference: input library
Target: UDP-N-acetylglucosamine--peptide N-acetylglucosaminyltransferase 110 kDa subunit (OGT, Homo sapiens, UniProt O15294)
Sequence of UniProt O15294 (whole entry, looked up): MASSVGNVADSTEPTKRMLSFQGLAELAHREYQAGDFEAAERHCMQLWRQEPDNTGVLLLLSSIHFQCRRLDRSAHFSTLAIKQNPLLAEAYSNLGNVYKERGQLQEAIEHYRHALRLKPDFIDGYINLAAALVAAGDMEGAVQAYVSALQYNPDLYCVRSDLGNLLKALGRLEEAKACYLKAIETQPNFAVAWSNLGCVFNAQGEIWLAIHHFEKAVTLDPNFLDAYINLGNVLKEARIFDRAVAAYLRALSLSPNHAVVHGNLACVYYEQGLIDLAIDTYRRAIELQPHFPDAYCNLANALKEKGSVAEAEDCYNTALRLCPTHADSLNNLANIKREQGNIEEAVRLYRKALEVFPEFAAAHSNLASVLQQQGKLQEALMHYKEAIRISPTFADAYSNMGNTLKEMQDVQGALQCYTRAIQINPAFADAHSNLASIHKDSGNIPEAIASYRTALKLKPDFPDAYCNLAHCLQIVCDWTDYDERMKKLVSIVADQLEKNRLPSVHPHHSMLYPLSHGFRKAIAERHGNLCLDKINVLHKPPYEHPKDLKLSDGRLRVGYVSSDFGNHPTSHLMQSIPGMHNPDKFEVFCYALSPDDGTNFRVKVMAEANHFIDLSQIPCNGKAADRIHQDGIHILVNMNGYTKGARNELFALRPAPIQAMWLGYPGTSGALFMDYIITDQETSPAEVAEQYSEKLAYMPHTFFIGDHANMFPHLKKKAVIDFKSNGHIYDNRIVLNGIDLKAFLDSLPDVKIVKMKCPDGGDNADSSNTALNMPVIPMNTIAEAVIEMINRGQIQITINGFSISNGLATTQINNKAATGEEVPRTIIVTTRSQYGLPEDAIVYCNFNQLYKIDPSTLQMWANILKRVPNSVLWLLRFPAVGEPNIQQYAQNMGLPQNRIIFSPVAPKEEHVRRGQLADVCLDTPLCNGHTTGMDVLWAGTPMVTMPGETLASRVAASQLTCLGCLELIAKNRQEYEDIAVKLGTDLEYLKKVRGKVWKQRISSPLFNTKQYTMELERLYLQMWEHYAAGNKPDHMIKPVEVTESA
Sequence | enrichment fold change
TIEDHVHHHAHRLDR | 4.87
SMVHGVHTIEHHHYQ | 4.03
RFFQPAYQIMPQSYR | 1.7
NHTHMHRHPKDHQRE | 4.99
QQPRYYPQYQMRYKV | 9.31
DHSHFHERMYVRHDI | 2.22
WTDHGGNIIHTHHH | 54.9
HFVHRQDNGFMKHT | 4.97

Set 2 — target: CCNA2, cyclin fold, Cln2 fusion (human); method: yeast growth competition, sequencing; medium: yeast; setting: strong parent motif; reference: not given; reading: higher = stronger binding
Parent: viral docking peptide; YKVKRRLVFGADD; partner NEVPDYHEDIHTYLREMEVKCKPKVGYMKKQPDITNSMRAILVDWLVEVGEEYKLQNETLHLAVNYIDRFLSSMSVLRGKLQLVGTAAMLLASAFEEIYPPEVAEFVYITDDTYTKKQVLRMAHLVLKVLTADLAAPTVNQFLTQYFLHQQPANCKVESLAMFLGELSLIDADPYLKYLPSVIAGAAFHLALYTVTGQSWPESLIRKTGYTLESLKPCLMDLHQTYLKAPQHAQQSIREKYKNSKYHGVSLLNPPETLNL
Change | normalised enrichment score
K2P | 5.81
L7F | 1.45
V3A | 6.47
K4D | 2.9
A11C | 6.17
K4I | 3.76
A11S | 6.22
K2W | 5.67

Set 3 — target: tungstate, free oxyanion; method: microfluidic competitive inhibition; medium: in vitro, cell-free expressed; concentration: not given; reading: lower = stronger binding
Setting: derived from inhibition constants, unchanged parent 2230 nM
Parent: PafA, mature enzyme, eGFP fusion (Elizabethkingia meningoseptica, UniProt Q9KJX5); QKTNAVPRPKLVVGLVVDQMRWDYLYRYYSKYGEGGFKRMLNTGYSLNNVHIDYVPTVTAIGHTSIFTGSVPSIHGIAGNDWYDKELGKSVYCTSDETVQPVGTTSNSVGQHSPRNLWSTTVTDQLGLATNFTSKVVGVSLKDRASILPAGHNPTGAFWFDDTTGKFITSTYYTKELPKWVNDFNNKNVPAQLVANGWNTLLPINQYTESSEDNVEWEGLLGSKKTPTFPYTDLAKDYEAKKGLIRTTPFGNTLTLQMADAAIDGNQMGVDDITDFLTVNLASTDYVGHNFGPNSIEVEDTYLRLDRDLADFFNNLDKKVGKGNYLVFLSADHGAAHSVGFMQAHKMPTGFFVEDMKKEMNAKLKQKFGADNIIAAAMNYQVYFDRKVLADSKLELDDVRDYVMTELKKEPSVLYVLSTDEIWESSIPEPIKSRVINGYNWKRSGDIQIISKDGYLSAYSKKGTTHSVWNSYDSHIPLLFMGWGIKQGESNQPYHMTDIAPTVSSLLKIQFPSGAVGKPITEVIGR
Change | oxyanion analog dissociation constant [µM]
P72V | 1.25
M378V | 2.44
D143G | 4.84
P293G | 2.17
P227V | 3.11
P9G | 1.26
G222V | 2.53
D272G | 2.29

Other studies, line by line
Compound | target | test | setting | how to read | endpoint | result
N/C(=N\[N+](=O)[O-])N/N=C\c1ccc(-c2cccc([N+](=O)[O-])c2)o1 | Death-associated protein kinase 2 (DAPK2, Homo sapiens, UniProt Q9UIK4) | enzyme activity, inhibitor | 0.5 µM | reference: control | remaining activity | 80.1%
